Results from different studies.
Parts stem from different laboratories: compare values within a part only. Several values in a cell are separate wells, animals, samples, runs or records. Changes are numbered by the printed parent chain.
Chain of UniProt P11802 (whole entry, looked up): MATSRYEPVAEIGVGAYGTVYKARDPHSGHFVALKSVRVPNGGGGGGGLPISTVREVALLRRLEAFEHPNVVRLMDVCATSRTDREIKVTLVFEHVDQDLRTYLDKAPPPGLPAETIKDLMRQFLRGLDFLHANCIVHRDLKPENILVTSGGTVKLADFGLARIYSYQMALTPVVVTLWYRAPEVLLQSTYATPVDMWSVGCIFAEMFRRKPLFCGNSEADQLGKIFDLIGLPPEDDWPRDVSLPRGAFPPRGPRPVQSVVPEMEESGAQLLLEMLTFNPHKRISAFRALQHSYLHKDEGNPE
Chain of UniProt Q00536 (whole entry, looked up): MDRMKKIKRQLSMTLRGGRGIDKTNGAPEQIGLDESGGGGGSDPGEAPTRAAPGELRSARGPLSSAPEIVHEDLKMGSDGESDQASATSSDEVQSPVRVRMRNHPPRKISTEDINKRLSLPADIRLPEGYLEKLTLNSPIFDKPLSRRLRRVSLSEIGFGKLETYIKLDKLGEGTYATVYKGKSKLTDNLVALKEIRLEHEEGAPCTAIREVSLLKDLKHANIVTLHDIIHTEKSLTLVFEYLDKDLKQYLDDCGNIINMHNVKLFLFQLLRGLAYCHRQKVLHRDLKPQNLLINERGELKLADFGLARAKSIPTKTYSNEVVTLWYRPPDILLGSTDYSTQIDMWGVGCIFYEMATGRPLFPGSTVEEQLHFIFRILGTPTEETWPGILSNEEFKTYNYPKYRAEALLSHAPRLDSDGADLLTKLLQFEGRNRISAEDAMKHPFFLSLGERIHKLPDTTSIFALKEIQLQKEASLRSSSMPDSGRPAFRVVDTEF
Chain of UniProt P09619 (whole entry, looked up): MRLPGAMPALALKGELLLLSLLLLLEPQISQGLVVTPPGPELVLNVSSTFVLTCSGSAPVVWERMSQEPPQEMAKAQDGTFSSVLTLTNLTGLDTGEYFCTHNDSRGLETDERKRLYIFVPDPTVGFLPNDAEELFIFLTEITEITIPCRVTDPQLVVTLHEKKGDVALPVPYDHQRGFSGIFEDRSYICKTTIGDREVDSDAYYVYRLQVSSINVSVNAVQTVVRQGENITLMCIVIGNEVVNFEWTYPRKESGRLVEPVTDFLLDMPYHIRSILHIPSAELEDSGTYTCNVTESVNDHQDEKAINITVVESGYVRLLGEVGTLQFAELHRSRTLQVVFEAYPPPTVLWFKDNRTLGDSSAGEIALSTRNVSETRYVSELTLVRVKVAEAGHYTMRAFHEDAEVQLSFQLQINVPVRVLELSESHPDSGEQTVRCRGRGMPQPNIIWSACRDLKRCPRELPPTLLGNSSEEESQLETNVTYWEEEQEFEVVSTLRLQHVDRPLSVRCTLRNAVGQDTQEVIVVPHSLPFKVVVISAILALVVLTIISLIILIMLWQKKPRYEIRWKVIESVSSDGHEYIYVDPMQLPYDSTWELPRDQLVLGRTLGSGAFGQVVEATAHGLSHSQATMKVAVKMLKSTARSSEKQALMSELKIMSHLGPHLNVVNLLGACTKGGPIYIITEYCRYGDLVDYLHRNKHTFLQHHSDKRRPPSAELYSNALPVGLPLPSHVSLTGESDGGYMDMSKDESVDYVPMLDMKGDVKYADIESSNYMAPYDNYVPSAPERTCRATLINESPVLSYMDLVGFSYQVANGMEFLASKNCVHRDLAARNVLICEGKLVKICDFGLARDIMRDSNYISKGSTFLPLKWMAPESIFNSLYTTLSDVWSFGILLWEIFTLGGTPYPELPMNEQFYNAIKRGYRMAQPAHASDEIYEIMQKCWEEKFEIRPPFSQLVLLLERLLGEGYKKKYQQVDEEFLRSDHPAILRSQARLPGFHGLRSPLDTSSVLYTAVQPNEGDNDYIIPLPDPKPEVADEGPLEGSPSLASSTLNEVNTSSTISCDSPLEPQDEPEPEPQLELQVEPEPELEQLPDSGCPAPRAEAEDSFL
Chain of UniProt P48736 (whole entry, looked up): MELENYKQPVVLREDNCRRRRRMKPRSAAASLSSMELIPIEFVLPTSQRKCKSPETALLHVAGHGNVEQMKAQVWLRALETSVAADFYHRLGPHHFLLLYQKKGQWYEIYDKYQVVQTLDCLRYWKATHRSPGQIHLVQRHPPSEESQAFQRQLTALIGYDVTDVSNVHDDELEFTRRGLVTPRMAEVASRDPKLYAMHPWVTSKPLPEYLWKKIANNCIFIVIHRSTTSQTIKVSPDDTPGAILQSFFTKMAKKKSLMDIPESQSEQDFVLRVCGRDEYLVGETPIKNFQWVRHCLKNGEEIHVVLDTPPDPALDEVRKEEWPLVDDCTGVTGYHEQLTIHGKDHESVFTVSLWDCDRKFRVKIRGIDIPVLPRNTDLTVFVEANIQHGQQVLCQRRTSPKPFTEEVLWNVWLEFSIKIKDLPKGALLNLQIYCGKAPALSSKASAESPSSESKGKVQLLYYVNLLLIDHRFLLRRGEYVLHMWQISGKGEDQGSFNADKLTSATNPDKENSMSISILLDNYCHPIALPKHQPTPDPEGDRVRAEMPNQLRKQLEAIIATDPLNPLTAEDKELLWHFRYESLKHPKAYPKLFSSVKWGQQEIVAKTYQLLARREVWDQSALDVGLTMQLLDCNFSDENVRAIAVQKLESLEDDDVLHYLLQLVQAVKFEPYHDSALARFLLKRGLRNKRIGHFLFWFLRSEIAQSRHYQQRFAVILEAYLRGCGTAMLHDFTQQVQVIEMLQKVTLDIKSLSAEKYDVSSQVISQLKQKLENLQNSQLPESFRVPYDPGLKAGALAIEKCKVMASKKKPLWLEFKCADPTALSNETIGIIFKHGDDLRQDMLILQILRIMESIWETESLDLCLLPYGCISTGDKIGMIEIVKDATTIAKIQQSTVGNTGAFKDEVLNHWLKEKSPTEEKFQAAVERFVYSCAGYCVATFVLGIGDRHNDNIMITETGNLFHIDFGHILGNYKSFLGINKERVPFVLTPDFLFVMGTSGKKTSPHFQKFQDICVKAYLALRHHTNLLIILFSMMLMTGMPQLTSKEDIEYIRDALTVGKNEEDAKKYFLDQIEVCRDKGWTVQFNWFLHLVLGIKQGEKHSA
Chain of UniProt Q56UN5 (whole entry, looked up): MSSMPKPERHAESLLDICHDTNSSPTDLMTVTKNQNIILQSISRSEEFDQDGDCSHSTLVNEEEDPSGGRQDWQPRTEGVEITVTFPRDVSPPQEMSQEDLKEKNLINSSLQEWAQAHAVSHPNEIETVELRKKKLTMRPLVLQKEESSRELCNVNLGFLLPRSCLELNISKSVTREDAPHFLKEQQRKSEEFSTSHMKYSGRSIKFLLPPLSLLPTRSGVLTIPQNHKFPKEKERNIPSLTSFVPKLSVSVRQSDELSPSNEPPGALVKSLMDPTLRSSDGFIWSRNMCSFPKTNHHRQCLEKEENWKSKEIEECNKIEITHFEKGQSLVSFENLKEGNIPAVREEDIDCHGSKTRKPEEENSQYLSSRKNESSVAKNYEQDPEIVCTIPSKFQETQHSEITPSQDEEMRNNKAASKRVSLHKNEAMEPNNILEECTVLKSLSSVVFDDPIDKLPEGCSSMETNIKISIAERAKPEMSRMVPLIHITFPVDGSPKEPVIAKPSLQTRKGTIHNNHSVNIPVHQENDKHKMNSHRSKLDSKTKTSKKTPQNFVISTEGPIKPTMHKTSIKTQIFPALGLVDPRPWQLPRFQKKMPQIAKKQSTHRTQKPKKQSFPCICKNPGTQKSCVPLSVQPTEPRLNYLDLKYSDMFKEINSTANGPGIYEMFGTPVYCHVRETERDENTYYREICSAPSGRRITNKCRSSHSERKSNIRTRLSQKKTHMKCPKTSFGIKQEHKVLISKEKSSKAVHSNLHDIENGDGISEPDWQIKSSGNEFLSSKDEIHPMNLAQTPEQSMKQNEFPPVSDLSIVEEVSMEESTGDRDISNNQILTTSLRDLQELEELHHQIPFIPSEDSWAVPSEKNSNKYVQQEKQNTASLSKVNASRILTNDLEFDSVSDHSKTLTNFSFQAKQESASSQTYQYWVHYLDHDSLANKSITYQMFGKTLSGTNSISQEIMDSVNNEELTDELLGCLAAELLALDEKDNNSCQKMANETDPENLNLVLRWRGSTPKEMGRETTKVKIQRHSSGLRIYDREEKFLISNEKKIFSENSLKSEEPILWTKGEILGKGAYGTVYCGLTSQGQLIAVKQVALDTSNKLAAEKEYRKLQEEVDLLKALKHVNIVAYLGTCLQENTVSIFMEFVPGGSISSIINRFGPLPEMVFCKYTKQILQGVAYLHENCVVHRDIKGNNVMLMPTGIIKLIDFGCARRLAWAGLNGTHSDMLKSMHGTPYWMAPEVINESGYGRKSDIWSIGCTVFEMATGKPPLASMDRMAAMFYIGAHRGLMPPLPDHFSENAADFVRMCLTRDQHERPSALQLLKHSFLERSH

Block 1
Compound: CC(C)S(=O)(=O)c1cc2c(Nc3ccc4sc(C5CCCC5)nc4c3)ccnc2cc1OCCO
cell line | test | conditions | viability
L929 RIPK3 knockout |  | 0.781 µM, added: zVAD | 90.2% and 94.9% and 98.7% and 93.9% and 94.4%
L929 RIPK3 knockout |  | 50 µM, added: zVAD | 52.5% and 52% and 50.5% and 56.6%
L929 RIPK3 knockout |  | 6.25 µM | 89.8% and 91.6% and 86.7% and 89.3%
L929 | CCK-8 | 50 µM, added: zVAD | 41.5% and 38.7% and 37.5% and 57.9%
L929 RIPK3 knockout |  | 6.25 µM, added: zVAD | 87% and 93.2% and 92% and 96.7% and 88%
L929 | CCK-8 | 100 µM, added: zVAD | 14.2% and 13.4% and 14.6% and 8.31%
L929 | CCK-8 | 3.125 µM, added: zVAD | 94.2% and 101% and 99.3% and 93% and 99.2%
L929 | CCK-8 | 50 µM | 35.3% and 34.7% and 56% and 35.4% and 36.2%
L929 RIPK3 knockout |  | 0.781 µM | 95.9% and 93.1% and 98.2% and 99.5%
L929 | CCK-8 | 1.563 µM, added: zVAD | 95.5% and 96.2% and 92.1% and 91.6%

Block 2
Target: CCNA1, cyclin fold, Cln2 fusion (human)
Method: yeast growth competition, sequencing
Matrix: yeast
Notes: weak parent motif
Relative to: not given
Reading: higher = stronger binding
Parent: viral docking peptide; KGVKRKLFAEDSS; partner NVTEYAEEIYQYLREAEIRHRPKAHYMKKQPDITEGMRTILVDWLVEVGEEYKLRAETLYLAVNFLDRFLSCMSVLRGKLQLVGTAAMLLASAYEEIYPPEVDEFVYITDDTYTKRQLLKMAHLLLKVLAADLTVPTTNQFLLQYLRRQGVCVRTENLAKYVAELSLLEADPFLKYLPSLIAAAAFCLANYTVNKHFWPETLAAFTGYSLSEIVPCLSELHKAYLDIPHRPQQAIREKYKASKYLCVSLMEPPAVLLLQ
Change | normalised enrichment score
KGVKPKLFAEDSS [R5P] | 0.195
KGVDRKLFAEDSS [K4D] | -0.139
KGKKRKLFAEDSS [V3K] | 0.346
KGVKRKLFAESSS [D11S] | 1.34
KGVKRKLFAEGSS [D11G] | 1.38
KCVKRKLFAEDSS [G2C] | 1.23
KGVKDKLFAEDSS [R5D] | 0.208
KGVKKKLLAEDSS [R5K F8L] | 0.219

Block 3
Target: Dual specificity tyrosine-phosphorylation-regulated kinase 1B (DYRK1B, Homo sapiens, UniProt Q9Y463)
Effect on: enzyme activity
Mode: inhibitor
Method: radiometric
Tested at: 0.5 µM
Structure (SMILES) | remaining activity
O=c1c2ccccc2[nH]c(=S)n1CCN1CCC(=C(c2ccc(F)cc2)c2ccc(F)cc2)CC1 | 97.1%
CCOC(=O)c1c(C)[nH]c(/C=C2\C(=O)Nc3ccccc32)c1C | 105%
O=C(Nc1cccc(Nc2cc(Nc3cccc(C(F)(F)F)c3)ncn2)c1)C1CC1 | 105%

Block 4
SMILES: Cn1cncc1[C@@](O)(COc1ccc(C#N)cc1-c1ccc(OC(F)(F)F)cc1)c1ccc(C#N)cc1
Effect on: cell-free assay
Method: competition with immobilised ligand
Tested at: 1 µM
target | remaining binding [%]
Cyclin-dependent kinase 4, with cyclin D1 (CDK4, Homo sapiens, UniProt P11802) | 93
PDGFRB (Homo sapiens, UniProt P09619) | 97
MAP3K19 (Homo sapiens, UniProt Q56UN5) | 100
CDK16 (Homo sapiens, UniProt Q00536) | 85
PIK3CG (Homo sapiens, UniProt P48736) | 69

A few entries again (block 3):
Structure (SMILES) | remaining activity
O=C(Nc1cccc(Nc2cc(Nc3cccc(C(F)(F)F)c3)ncn2)c1)C1CC1 | 105%
